Measurements from different studies.
Parts stem from different laboratories: compare values within a part only. Changes are numbered by the printed parent chain.

Sample 1 — method: competition protein-binding microarray; molecule type: double-stranded DNA, one strand shown; medium: in vitro; tested at: 2 µM; together with: Cbf1 competitor, 0.05 µM; reading: higher = stronger binding; shared flanks, not repeated: … GTCTTGATTCGCTTGACGCTGCTG
Target: Phosphate system positive regulatory protein PHO4, full length, GST-tagged (PHO4, Saccharomyces cerevisiae, UniProt P07270, residues 1-312)
Setting: whole 60-bp probe, lowest competitor level
Target sequence (chain): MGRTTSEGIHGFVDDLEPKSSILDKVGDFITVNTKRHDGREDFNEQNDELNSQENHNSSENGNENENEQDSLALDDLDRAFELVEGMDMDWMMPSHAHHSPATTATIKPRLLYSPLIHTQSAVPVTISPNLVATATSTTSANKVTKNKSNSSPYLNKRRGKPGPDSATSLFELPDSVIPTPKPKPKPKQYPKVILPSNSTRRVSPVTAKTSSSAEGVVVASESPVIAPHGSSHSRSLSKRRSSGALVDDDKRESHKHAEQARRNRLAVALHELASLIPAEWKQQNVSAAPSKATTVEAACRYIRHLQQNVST
| Oligonucleotide | fluorescence intensity [a.u.] |
| --- | --- |
| GGGTGTGCATCTGGGCATGATCTACCAAGAGGACAG | 7600 |
| TCTCTCTGCTGATTGGACGTGGGTACGTACTATTTC | 5590 |
| ATATAAACGGATGAAAACGTGTTGATAATTGCATCA | 13300 |
| AAAGCGGTAATTTGGCAAGTGGGTGCAGATATCTAT | 4270 |
| ATCGTAAATAAAACACACGTGCTTTCCCTACCACTT | 18700 |
| ATGAAAATGAAGAAATGCGTGATGGGAAATTACGGG | 6600 |
| TGTGTAACAGAACCGGACGTGCTTTAGGCTGATGAA | 5200 |
| TGCGCAACAACTTGTCATGTGGGTGTATGTCTAGAA | 8310 |
| CCTAACTTCTTTAGGGGCGTGGCAACTGTCGGGACT | 8500 |
| AAATTACTAAGTTGGATCGTGGGTGACGCCGTATGA | 8250 |
| GATGTTGTCTGCTTTGTCGTGCTAACCAAACAGCAA | 5580 |
| TTTTCGATTTTCTGGCACGATGCTGACTTAGTACTA | 11600 |
| AAAGAAGAAGAAACCTCCGTGGGTAATCGTTTGAAT | 5110 |
| GTCCTGGCACCATCAATCGTGCTTTGACCAGTATGT | 7140 |
| TTGGGATATTAGCGTCACAATGTTTTAACTATTTGG | 3890 |
| AGGCAGACAAGCTGTCATGTGTTCTGATTATGCCAT | 7820 |
| TGACCGCTCCACCGGCATGCGTGTAGTCATCCCGCA | 8060 |
| TACATTCCATTTTTGCACGTGTTGGGGTACAGAATC | 19000 |
| CTTCTGTAAATTTGCAGGGTGGGTGGACGCGCCCCG | 4540 |
| CTATTGCAAGAACTGGCCGTGATGGCAGAGTATCGG | 4100 |
| GTCCCCCCGCCACACATCGTGGAATAATCGCTATCG | 6400 |
| CATACCCAACCTTGTCACTGTACTTAAGATATTTGT | 3710 |
| AAACAGGGCGGCGTTCCCGTGCGGAAGGTGGTCTGC | 6260 |
| CTTCTGTAAATTTGCTCGGTGGGTGGACGCGCCCCG | 4310 |
| CGGGGTTAAGTTTGTCACATTACTTGCTTGCAGCAG | 3810 |

Sample 2 — method: protein binding microarray; molecule type: double-stranded DNA, one strand shown; medium: in vitro; tested at: not given; relative to: not given; reading: higher = stronger binding
Target: Histone acetyltransferase KAT6A, both winged helices, GST fusion (KAT6A, Homo sapiens, UniProt Q92794, residues 1-181)
Setting: 8-mer, flanks averaged, mean of 2 arrays, mostly near background
Target sequence (chain): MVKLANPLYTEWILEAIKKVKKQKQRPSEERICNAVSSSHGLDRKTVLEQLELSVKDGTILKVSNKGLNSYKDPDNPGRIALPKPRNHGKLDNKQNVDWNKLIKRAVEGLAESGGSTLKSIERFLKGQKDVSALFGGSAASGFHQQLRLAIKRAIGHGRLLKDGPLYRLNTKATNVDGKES
| Oligonucleotide | E-score |
| --- | --- |
| CCGTTGCC | 0.26 |
| CCACGTGA | -0.078 |
| GCTTTAGA | -0.128 |
| GCCTTTTA | 0.0106 |
| ACGCCGTC | 0.296 |
| CCCATCCA | -0.159 |
| CAGGCTGA | -0.132 |
| ACCGAATC | 0.0468 |
| ACGAGAGC | -0.034 |
| GAAGACTA | -0.0857 |
| AATAGATA | -0.114 |
| AACCTCAC | -0.209 |
| CCGTTTAC | 0.233 |
| AAGGGAGG | -0.187 |
| CTCAGTCA | -0.205 |
| ATACTATG | -0.0532 |

Sample 3 — method: RNA Bind-n-Seq; molecule type: RNA; medium: in vitro; tested at: 365 nM; relative to: no-protein control; reading: higher = stronger binding
Target: RNA binding protein fox-1 homolog 2, RRM domain, GST-SBP tag (RBFOX2, Homo sapiens, UniProt O43251-10, residues 100-194)
Setting: natural RNA segment, single round, ends assumed
Shared flanks, not repeated: GGGAGUUCUACAGUCCGACGAUC … UGGAAUUCUCGGGUGCCAA
Residues (chain): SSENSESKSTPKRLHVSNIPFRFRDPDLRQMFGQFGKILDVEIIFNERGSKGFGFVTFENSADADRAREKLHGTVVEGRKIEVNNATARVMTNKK
| Oligonucleotide | RBNS enrichment (R) |
| --- | --- |
| UGCAGCUGGGAGGAGGUCCGAGUACCUCUUCAGUGGCUCUCAGGGGCCAUUUCUGUGGAAGGGGUAGAGGUAGGUGGCACAGAAGAUGGGGCUUUGCGCUUGUAAAUACU | 0.864 |
| UUUGUGCUUCUCAUGUAACAUUGGGAUUGUGUAGAUUUGAACCUUAUAACUUGAAUUUUAAAGAUAGUAGCAUUUUGAAGAUGCUUAAUAACCUUUUUAGGAAUAUGGAG | 0.379 |
| ACAGUUCCACAGUUGUUGAUGUGUUUGUGUGUAUAUUCGAUUUUUAUAAAGAUGGUAGUAAGUCAAUACAUUUAUCCUGAUCUGUGUAUUAUUUGUUCACAAAUUCAAGA | 0.573 |
| CUGCUUCUGGAAGGGCUAUCCUGGGGGUGAACUUGAAACUCUCAUCAGGCUUCUGCAAAAGCUCUUCUUCCUGAAGACAGACCCAGCCUUUGUGCUCUCACCCUCCACUC | 0.325 |
| AAGCCAACUGACAAAGAUGCAUCACGUGUCUUAGGCUGAUGCCACUACCCGAUUUGUUUAUUUGCAAUUUGAGCCAUUUAAAGACCAAUAAACUUCCUUUUUUAAAAUGU | 0.5 |
| CCAGGAGUUUGAGACUAGACUGGGCAACAUAGCAAGACCCCGUCUCUACAAAGCACAACGAAAAACAACAAAUGGAGUUGUGCUAUGUUGUAUUGCUUUGCACAAAAUUA | 0.48 |
| GUCUCCUGCAUCCAAAUGUCCUCUUUGGCUCAAAAAGUAGGCCAGGCAUGGUGGUUCAUGCCUGUAAUAGCACUUUGGGAGACUGAGGUGGGAGGAUCACUUGGGGCCAG | 0.571 |
| ACAUUCCACCUCCAUCUCUGCUUGUGUCCCUCACAUCAGCAUUAAUCUUUGUUUCCCUCACACUUAGAGCCACUAAGUCUGCAGUUCUUUUUGAAUGUGAAACACAUCUG | 0.613 |
| CUUUUGUAACAGGUUACGUAGACCAGCAGUGUUUAAAUCUAAAUACGUUGUGAGUCUGUUAUCUGUCCUAUCGCGUUUUUUAAAUGACUUUUUAUUCUUUAUCAUAGCUA | 0.329 |
| CGCCCCUUGUGCUCGAAGUGUUUGGCAAUGAGAUCUCCUGACUAGGACAGCCUGUGGCGGUGCCUGGGUGGGGCUGCUCCUCCAGGGCCACGUGCCAGGCCCGGGGCUGG | 1.56 |
| GCUCUGGUGUGAGUCACUUACCUAGCUUAUGUCAGGCCCCUAAAAGUAAUGCAUAAACUGUCAGAAUCGGGACCUUAUCGUUGAGGUGAAAAGAACCAAGGCCCGUAGGA | 0.352 |
| UACGUGGUUGUCUGCUUUCCUAAGGACUCCCAUUUCCAGUAUUAAAGAGAGAAUCAUCAUCAAGGCACCGUAGGUAACUCAGUGGCUGUGACCAGCUCGACUGGCGGCCA | 0.57 |

Sample 4 — target: JUN, bZIP domain (human); method: DHFR protein complementation; medium: yeast; relative to: wild-type JUN-FOS pair; reading: higher = stronger binding
Setting: single substitutions, most at no-binding floor
Parent: JUN, bZIP domain (human); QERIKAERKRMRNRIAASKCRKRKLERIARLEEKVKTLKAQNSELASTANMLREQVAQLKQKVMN; partner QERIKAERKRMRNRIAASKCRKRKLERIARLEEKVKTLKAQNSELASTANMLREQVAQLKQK
| Substitution | binding fitness [natural log] |
| --- | --- |
| S47G | -0.306 |
| N42W | -1.1 |
| T37F | -0.102 |
| K34Y | -0.181 |
| A29G | -0.491 |
| V35L | -0.413 |
| S47L | -0.226 |
| E33T | -0.472 |
| E32W | -1.12 |
| L31Y | -1.19 |
| E32F | -1.16 |
| A46I | -0.124 |
| M51H | -0.235 |
| L52N | -1.11 |
| R30V | -0.0948 |
| I28R | -0.865 |
| R53V | -0.906 |
| E54C | -0.711 |
| V56F | -0.679 |
| I28C | -0.603 |
| T48L | -0.199 |
| N42L | -1.18 |

Sample 5 — method: universal PBM; molecule type: double-stranded DNA, one strand shown; medium: in vitro; tested at: not given; reading: higher = stronger binding
Target: Sal-like protein 4, full length isoform B (SALL4, Homo sapiens, UniProt Q9UJQ4-2, residues 1-616)
Setting: 8-mer, flanks averaged, mean of replicates
| Oligonucleotide | E-score |
| --- | --- |
| GAACGTCA | 0.0513 |
| AATACCTA | 0.316 |
| ACTGGAGA | -0.106 |
| AGCTGGGA | -0.211 |
| TGAGGGAA | 0.0534 |
| GGAACCCC | -0.354 |
| ACGAGGGG | -0.235 |
| CTTTTGCA | 0.0743 |
| GCCCTACA | -0.13 |
| ACACTACT | 0.0733 |
| CACCCCAG | -0.271 |
| AACTACTT | 0.0551 |
| AACTGGCC | -0.194 |
| ATCCCTTC | -0.0429 |
| GCAAACAC | -0.0173 |
| TAGGGCAA | -0.0292 |
| AGGTACGC | -0.18 |
| CCAGCCTC | -0.252 |

Further values, each from its own experiment — target: human cyclin B2; read-out: peptide binding; method: yeast competitive growth sequencing; molecule type: peptide; organism: Saccharomyces cerevisiae; strain: cyclin B2-Cln2 fusion; tested at: concentration not given; setting: library 1; reading: direction not given
| Sequence | binding enrichment score |
| --- | --- |
| ASPLKKLFTSTGL | -0.569 |
| GAPLKKLFTSTGL | -1.17 |
